Results of several laboratories.
A part holds a random share of what one study measured. Substitutions count along the parent as printed.
UniProt P20309, sequence (whole entry, looked up): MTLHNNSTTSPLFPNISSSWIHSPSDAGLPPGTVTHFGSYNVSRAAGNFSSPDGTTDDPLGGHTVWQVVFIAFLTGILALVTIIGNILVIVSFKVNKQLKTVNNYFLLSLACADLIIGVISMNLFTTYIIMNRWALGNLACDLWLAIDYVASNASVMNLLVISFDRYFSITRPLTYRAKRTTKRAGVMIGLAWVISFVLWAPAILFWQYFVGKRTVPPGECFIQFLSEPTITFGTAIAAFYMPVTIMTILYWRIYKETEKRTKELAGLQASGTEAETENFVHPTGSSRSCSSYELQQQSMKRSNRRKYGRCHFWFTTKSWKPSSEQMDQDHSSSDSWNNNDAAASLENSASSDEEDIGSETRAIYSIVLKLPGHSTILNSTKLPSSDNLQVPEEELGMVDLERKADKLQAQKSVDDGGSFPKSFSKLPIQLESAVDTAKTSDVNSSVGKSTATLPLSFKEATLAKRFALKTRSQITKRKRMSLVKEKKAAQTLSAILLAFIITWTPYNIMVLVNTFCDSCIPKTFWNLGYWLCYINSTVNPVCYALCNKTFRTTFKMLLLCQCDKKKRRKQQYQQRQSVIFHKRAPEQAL

Series 1
Target: inorganic phosphate, free oxyanion
Technique: microfluidic competitive inhibition
Sample: in vitro, cell-free expressed
Tested at: not given
Notes: derived from inhibition constants, unchanged parent 615000 nM
Direction: lower = stronger binding
Starting sequence: PafA, mature enzyme, eGFP fusion (Elizabethkingia meningoseptica, UniProt Q9KJX5); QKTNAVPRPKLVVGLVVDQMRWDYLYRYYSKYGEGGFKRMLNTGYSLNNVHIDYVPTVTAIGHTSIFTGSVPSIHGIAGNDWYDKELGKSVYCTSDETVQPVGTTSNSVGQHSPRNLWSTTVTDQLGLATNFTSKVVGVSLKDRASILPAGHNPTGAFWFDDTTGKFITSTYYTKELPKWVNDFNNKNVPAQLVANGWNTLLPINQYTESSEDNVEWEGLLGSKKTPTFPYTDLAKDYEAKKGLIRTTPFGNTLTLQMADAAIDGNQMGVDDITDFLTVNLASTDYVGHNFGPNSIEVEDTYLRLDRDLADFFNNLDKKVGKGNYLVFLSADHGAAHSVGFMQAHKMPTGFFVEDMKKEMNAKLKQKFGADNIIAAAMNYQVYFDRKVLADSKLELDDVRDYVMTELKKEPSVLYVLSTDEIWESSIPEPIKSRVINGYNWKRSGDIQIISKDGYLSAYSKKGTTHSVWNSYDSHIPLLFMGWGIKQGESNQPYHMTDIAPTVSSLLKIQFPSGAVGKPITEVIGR
Change	phosphate dissociation constant [µM]
T464V	558
Q510G	466
S444G	446
E359G	557
V109G	593
Y455V	627
W441V	442
N315G	611

Series 2
Target: CCNE2, cyclin fold, Cln2 fusion (human)
Technique: yeast growth competition, sequencing
Sample: yeast
Notes: strong parent motif
Reference: not given
Direction: higher = stronger binding
Starting sequence: viral docking peptide; KKAKRRLFTISDS; partner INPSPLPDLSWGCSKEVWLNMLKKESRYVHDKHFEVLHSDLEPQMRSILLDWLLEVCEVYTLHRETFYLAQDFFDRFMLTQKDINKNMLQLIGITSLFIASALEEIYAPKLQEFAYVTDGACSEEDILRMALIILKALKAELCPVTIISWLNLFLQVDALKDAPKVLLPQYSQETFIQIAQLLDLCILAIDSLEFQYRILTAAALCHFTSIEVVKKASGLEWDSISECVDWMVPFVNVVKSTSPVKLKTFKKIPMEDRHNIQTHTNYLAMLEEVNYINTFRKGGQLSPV
Change	normalised enrichment score
KKAKRRLLTISDS [F8L]	0.975
KKAARRLFTISDS [K4A]	1.04
KKAKRRLFTISAS [D12A]	0.62
KKAKARLFTISDS [R5A]	1.27
KKAKRRLATISDS [F8A]	0.705
KKAKKRLFTISDS [R5K]	0.804
KKAKRALFTISDS [R6A]	1.82
AKAKRRLFTISDS [K1A]	2.81

Single results of other studies
SMILES	target	effect on	technique	sample	tested at	measurement	result
CC(C)(C)c1cnc(CSc2cnc(NC(=O)C3CCNCC3)s2)o1	GSK3 (Trypanosoma brucei, UniProt Q388M1)	binding	kinobead competition	Trypanosoma brucei lysate	–	IC50	> 10 µM
CC1=C(C#N)C(c2ccc3[nH]nc(C)c3c2)C(C#N)=C(C)N1	Muscarinic acetylcholine receptor M3 (CHRM3, Homo sapiens, UniProt P20309)	ligand displacement	–	–	10 µM	inhibition	-1.54%

Repeated from above (series 2):
Change	normalised enrichment score
KKAKRRLFTISAS [D12A]	0.62
KKAKARLFTISDS [R5A]	1.27
